Results from different studies.
Every numbered part comes from another study and shows a few of its results, in no order.
UniProt P42336, sequence (whole entry, unmodified, looked up): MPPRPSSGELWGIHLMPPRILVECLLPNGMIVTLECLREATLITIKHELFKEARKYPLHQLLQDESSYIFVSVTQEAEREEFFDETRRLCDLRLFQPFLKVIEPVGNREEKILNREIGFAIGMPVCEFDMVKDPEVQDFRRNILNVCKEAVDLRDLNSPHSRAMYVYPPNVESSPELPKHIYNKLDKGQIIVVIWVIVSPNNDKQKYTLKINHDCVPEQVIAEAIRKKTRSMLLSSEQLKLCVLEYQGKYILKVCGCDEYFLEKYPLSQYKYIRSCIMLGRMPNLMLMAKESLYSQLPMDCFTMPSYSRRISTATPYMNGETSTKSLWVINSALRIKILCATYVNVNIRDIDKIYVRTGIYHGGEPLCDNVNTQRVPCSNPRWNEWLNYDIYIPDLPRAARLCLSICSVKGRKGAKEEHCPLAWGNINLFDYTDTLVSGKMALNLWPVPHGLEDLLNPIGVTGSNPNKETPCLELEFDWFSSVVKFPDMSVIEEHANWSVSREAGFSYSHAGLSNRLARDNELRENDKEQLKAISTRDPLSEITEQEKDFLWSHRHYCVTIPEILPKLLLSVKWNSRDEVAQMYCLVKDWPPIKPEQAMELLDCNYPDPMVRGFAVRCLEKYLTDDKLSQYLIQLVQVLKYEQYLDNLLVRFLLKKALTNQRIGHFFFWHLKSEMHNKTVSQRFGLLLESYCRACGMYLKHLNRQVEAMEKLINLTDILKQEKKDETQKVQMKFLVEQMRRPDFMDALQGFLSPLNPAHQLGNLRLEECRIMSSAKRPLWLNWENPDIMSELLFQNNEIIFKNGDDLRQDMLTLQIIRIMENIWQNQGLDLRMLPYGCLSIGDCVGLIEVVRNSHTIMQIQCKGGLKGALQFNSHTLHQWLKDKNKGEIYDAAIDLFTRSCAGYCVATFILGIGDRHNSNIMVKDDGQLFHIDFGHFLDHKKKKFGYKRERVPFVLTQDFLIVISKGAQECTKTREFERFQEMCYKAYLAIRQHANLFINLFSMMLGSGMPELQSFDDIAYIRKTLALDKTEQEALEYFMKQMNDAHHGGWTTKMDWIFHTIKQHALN
UniProt P07333, sequence (whole entry, unmodified, looked up): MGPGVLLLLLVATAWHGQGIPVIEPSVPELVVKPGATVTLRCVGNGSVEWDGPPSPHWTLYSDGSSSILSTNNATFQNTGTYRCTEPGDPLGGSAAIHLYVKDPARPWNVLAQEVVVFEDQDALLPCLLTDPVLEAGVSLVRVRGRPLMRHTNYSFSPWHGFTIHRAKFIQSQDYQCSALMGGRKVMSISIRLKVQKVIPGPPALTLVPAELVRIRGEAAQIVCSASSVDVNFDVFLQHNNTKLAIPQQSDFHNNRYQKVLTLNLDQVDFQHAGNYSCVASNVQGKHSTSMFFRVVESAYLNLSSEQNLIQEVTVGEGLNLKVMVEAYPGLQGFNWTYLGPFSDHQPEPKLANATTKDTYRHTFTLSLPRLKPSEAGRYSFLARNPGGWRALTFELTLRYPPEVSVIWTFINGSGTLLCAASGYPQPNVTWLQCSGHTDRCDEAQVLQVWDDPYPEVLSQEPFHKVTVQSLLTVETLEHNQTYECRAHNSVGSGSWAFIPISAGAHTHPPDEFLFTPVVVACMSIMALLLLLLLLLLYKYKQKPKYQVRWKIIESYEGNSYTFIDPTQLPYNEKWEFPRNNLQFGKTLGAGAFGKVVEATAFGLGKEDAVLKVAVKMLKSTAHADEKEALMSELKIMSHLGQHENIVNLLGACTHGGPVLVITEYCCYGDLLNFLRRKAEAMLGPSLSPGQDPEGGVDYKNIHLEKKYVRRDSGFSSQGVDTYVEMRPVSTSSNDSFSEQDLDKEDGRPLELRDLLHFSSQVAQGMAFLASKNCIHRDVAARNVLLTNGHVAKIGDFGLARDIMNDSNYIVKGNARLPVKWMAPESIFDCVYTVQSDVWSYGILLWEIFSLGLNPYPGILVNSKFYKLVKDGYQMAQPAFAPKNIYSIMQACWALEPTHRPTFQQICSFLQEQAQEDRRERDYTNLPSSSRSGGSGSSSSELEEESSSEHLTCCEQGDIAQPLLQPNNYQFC
UniProt O15530, sequence (whole entry, looked up): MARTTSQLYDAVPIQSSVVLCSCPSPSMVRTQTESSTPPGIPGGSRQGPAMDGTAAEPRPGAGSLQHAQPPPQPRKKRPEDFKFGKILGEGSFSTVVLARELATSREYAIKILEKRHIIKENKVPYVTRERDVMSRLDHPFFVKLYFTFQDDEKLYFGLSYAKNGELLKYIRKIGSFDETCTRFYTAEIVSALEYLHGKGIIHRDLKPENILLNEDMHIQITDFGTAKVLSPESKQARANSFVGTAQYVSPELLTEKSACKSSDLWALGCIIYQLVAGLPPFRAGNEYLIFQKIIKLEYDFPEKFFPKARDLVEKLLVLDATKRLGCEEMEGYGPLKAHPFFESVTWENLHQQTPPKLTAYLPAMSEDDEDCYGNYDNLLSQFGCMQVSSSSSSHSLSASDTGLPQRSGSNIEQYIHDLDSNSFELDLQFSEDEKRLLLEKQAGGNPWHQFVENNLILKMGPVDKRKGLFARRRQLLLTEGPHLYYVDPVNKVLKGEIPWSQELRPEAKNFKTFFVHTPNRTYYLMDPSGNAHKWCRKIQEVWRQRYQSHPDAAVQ
UniProt P62344, sequence (whole entry, looked up): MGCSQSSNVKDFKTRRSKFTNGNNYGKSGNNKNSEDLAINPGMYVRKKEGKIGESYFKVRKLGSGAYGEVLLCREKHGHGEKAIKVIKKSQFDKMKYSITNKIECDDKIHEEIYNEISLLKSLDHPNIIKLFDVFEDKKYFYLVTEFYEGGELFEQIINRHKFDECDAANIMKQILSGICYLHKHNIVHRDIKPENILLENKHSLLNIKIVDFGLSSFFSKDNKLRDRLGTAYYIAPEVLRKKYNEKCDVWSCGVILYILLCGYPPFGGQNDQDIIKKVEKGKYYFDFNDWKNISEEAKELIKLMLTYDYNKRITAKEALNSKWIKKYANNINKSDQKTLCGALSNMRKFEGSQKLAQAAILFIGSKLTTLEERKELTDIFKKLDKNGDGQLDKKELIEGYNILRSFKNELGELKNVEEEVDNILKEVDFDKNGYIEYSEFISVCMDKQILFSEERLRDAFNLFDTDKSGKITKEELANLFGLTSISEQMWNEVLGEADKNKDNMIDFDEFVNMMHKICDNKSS
UniProt P23458, sequence (whole entry, looked up): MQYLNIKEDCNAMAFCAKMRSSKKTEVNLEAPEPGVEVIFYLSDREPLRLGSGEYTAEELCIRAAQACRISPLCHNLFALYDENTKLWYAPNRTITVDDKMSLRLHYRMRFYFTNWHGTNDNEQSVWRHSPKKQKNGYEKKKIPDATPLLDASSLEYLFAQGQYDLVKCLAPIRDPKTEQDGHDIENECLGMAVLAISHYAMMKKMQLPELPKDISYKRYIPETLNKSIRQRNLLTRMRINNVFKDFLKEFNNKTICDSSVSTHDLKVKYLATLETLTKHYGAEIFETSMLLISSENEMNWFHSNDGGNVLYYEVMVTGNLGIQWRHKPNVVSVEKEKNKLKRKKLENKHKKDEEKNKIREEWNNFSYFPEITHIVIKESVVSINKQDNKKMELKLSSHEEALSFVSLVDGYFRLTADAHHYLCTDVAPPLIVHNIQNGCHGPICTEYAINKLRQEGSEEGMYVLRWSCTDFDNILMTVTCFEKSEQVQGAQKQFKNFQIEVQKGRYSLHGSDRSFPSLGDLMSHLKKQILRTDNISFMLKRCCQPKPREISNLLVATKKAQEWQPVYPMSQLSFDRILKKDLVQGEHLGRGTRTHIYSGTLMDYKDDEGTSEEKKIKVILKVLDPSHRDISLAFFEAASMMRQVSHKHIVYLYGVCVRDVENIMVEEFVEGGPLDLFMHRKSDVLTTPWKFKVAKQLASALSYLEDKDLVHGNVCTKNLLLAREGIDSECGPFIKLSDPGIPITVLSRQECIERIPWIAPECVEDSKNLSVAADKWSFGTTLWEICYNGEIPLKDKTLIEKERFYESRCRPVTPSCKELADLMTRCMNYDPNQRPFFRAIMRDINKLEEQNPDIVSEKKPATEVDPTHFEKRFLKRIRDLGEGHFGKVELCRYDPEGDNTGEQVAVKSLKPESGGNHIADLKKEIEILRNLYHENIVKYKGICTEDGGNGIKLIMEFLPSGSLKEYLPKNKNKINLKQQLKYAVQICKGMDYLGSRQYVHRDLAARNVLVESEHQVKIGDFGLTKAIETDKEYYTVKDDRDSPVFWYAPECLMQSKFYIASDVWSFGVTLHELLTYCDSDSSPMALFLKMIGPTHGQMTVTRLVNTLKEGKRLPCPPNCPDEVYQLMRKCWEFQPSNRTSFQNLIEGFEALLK

Study 1 — effect on: binding; technique: competition with immobilised ligand; tested at: 1 µM
Structure (SMILES): C=CC(=O)N1CCC(COCC(=O)N2CCN(c3nc(-c4cnc(N)nc4C(F)F)nc(N4CCOC[C@@H]4C)n3)CC2)CC1
| target | remaining binding |
| --- | --- |
| PDPK1 (Homo sapiens, UniProt O15530) | 100% |
| PIK3CA (Homo sapiens, UniProt P42336, M1043I) | 11% |
| PIK3CA (Homo sapiens, UniProt P42336, H1047L) | 0% |
| CDPK1 (Plasmodium falciparum, UniProt P62344) | 100% |

Mixed results
| Structure (SMILES) | target | test | conditions | endpoint | result |
| --- | --- | --- | --- | --- | --- |
| Cc1cc([C@@H](C)Nc2ccccc2C(=O)O)c2nc(N3CCC(F)(F)CC3)c(C#N)c(=O)n2c1 | CSF1R (Homo sapiens, UniProt P07333) | binding, competition with immobilised ligand | 10 µM | remaining binding | 94% |
| CCCCC(=O)Nc1ccc(-c2ccc3ncn(CCC)c(=O)c3c2)cn1 | PIK3CA (Homo sapiens, UniProt P42336, C420R) | binding, competition with immobilised ligand | 0.5 µM | remaining binding | 98% |
| CNc1ncc2c(/C=C/C(=O)N3CCC(OC)CC3)nn(Cc3cccc(C(F)(F)F)c3)c2n1 | JAK1 (Homo sapiens, UniProt P23458) | enzyme activity, inhibitor, radiometric | 1 µM | remaining activity | 100% |
| COc1cc(-c2cncc3c2CN(C)Cc2cc(N4CCNCC4)ccc2-3)cc(OC)c1OC | CSF1R (Homo sapiens, UniProt P07333, Y969C) | enzyme activity, inhibitor | 1 µM | remaining activity | 87% |
